Measured values gathered from unrelated publications.
Numbered parts are unrelated; each lists some results of a single study. Several values in a cell are separate wells, animals, samples, runs or records.
Chain of UniProt Q8N568 (whole entry, looked up): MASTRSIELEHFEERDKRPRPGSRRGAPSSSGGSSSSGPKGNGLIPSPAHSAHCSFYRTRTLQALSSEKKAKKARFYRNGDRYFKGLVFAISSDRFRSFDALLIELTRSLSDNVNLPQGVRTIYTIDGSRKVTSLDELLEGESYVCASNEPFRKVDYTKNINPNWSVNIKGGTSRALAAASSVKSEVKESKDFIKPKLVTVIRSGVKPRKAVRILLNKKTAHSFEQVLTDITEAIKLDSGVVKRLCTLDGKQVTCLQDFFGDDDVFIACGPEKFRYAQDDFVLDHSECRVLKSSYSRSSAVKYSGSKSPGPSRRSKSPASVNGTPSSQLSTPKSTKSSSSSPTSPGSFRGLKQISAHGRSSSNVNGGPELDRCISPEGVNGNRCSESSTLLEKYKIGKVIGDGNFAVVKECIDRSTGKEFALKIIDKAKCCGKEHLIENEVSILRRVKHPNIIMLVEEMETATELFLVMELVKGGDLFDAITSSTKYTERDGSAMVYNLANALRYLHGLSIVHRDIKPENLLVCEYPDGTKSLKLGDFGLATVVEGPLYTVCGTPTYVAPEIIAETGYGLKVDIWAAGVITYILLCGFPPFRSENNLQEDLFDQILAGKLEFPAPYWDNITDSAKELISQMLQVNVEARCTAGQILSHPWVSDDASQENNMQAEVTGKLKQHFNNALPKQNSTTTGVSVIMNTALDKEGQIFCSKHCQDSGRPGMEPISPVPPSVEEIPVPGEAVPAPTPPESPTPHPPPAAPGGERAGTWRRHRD
Chain of UniProt Q9HC98 (whole entry, looked up): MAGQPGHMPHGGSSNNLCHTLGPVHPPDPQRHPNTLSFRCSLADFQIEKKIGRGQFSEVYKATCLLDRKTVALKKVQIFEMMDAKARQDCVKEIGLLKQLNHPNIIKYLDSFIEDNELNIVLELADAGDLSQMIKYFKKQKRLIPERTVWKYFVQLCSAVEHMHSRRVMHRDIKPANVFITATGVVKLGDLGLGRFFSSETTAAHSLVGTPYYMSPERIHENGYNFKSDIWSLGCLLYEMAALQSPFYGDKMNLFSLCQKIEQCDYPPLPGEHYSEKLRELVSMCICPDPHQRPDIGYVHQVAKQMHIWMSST
Chain of UniProt P10721 (whole entry, unmodified, looked up): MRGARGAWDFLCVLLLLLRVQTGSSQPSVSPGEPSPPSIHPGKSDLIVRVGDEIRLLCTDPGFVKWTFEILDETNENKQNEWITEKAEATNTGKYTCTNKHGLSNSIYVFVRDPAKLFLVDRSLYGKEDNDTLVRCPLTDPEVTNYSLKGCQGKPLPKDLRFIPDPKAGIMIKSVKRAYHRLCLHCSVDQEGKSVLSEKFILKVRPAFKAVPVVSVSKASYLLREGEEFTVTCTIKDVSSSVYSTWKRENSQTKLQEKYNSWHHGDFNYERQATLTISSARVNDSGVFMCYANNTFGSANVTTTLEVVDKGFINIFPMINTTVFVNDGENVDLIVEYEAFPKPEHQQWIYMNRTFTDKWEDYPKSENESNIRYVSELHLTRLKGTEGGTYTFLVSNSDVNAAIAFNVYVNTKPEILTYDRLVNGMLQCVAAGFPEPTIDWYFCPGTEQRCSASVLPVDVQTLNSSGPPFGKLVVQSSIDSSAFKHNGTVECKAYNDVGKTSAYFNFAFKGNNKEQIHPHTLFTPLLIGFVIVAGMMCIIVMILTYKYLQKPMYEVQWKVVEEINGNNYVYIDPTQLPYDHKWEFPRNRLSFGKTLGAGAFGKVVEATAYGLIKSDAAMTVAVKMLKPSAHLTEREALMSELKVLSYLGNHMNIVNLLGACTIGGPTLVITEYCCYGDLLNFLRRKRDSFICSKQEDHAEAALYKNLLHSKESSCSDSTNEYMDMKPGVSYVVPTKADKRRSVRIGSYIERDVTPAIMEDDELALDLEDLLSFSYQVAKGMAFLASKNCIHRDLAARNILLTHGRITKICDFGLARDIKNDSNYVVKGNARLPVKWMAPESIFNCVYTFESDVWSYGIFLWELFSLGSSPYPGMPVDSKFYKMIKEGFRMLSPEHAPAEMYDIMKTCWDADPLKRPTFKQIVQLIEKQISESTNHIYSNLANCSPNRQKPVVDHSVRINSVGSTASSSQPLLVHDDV

Study 1 — observed: cell-free assay; method: competition with immobilised ligand; tested at: 1 µM; quantity: remaining binding
SMILES: O=C(Nc1ccc(Oc2ccc(F)cc2)cc1)N1CCc2ncccc2[C@H]1c1ccc(F)cc1
EGFR (Homo sapiens, UniProt P00533, L858R/T790M): 71%
NEK6 (Homo sapiens, UniProt Q9HC98): 100%
DCLK2 (Homo sapiens, UniProt Q8N568): 87%
EGFR (Homo sapiens, UniProt P00533, del747-752/P753S): 100%
KIT (Homo sapiens, UniProt P10721, D816H): 89%

Study 2 — host: C57BL/6 CES1-/- mouse; sample: gastrointestinal tissue; route: subcutaneous; notes: scale 0-6 per slide; reading: direction not given; quantity: GI histopathology sum score
Structure (SMILES): CC(=O)N[C@@H](Cc1c[nH]c2ccccc12)C(=O)N[C@@H](CCC(=O)C=[N+]=[N-])C(=O)OC(C)C
0.8 mg/kg: 0
0.26 mg/kg: 0
2.6 mg/kg: 1 and 2

Study 3 — cell line: mouse MPNST tumor cells; method: high-content nuclear imaging; refers to: cell number; tested at: 10 µM; time: 12 h; notes: mean of 2 replicates; relative to: plate mean; reading: higher = more cells; quantity: nuclei count
CC1CCN(CCCC(=O)c2ccc(F)cc2)CC1: 0.577 z-score
Clc1ccc(C(c2ccccc2Cl)C(Cl)Cl)cc1 (stereo not drawn): 1.01 z-score and 0.373 z-score
NCc1ccc(S(N)(=O)=O)cc1: 2.1 z-score
O=C(O)c1ccc(O)c2ncccc12: -0.376 z-score
Cc1ccc(S(=O)(=O)OCC(=O)Nc2ccc(C(=O)O)c(O)c2)cc1: 1.71 z-score
O=c1[nH]c2ccc(-c3c(Cl)cccc3OC(F)(F)F)cc2[nH]1: -0.256 z-score
CC(C)c1nc(N(C)S(C)(=O)=O)nc(-c2ccc(F)cc2)c1/C=C/[C@@H](O)C[C@@H](O)CC(=O)O: -1.18 z-score

Study 4 — observed: enzyme activity; action: inhibitor; tested at: 0.5 µM; relative to: control; quantity: remaining activity
Target: Cyclin-dependent kinase 1, with cyclin A (CDK1, Homo sapiens, UniProt P06493)
Chain of UniProt P06493 (whole entry, looked up): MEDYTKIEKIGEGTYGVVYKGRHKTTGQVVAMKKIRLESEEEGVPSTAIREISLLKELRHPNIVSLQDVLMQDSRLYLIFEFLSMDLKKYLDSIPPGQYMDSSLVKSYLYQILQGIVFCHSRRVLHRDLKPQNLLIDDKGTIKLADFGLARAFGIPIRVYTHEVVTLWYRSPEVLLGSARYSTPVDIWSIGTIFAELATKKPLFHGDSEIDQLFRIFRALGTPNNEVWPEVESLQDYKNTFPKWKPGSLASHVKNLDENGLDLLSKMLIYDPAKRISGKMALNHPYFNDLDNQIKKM
CN(C)C[C@H]1CCn2c(c(C3=C(c4cn(C)c5ccccc45)C(=O)NC3=O)c3ccccc32)C1: 67.8%
O=C1c2ccccc2-c2n[nH]c3cccc1c23: 85.6%
O=C1c2ccccc2-[n+]2ccc3c([nH]c4ccccc43)c21: 68%
O=C(NC(NC(=S)Nc1ccc(F)c([N+](=O)[O-])c1)C(Cl)(Cl)Cl)C(c1ccccc1)c1ccccc1 (stereo not drawn): 101%
COc1cc2ncnc(Nc3ccc(O)c(Br)c3)c2cc1OC: 101%
N#Cc1c(NC(=O)c2cccc3ccccc23)sc2c1CCCC2: 92.1%

Repeated from above (study 3):
CC1CCN(CCCC(=O)c2ccc(F)cc2)CC1: 0.577 z-score
Clc1ccc(C(c2ccccc2Cl)C(Cl)Cl)cc1 (stereo not drawn): 1.01 z-score and 0.373 z-score
